Published values gathered from unrelated publications.
Protocols differ between the studies behind these lines.
UniProt P42336, sequence (whole entry, unmodified, looked up): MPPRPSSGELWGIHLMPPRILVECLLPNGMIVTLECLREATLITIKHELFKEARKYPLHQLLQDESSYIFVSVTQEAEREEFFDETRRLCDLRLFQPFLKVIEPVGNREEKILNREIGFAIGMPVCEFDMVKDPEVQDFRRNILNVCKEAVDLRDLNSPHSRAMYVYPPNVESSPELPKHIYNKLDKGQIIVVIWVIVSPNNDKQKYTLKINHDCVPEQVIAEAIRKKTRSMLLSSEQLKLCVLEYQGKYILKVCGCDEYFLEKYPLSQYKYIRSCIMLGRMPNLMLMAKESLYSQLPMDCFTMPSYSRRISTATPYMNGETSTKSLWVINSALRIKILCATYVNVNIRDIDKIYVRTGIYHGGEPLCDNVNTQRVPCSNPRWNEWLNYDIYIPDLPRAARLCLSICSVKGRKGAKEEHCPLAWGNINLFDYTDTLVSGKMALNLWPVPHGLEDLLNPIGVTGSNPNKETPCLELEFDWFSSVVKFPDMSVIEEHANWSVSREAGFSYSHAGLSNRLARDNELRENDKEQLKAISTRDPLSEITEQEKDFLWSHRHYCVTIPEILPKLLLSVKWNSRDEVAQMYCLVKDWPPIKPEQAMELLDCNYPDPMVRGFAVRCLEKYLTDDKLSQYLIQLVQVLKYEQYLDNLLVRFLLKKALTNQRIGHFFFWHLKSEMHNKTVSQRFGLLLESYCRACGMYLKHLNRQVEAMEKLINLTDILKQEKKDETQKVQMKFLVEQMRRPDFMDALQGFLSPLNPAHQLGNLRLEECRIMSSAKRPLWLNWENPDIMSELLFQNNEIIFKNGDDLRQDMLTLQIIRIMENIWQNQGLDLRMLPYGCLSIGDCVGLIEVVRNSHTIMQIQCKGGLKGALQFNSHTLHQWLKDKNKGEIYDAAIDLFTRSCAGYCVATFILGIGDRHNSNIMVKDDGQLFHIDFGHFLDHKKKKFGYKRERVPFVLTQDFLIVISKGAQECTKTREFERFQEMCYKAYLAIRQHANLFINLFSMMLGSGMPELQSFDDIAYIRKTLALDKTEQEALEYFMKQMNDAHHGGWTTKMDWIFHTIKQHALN
UniProt P20309, sequence (whole entry, looked up): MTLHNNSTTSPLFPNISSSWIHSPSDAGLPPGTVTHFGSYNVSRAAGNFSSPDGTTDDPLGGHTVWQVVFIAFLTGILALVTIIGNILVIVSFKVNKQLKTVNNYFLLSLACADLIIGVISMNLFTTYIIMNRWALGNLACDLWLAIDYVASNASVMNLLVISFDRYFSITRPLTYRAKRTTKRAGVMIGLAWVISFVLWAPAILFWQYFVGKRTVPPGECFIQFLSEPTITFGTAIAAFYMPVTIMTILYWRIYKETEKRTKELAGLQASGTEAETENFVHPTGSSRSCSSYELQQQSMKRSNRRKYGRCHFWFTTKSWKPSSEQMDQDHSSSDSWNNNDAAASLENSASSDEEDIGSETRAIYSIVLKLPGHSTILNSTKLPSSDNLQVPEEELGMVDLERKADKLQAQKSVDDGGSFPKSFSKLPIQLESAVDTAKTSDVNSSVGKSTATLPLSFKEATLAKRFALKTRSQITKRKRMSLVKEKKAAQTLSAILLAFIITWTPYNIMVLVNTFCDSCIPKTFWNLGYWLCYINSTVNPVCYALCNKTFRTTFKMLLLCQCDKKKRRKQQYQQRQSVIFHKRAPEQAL
UniProt P48736, sequence (whole entry, looked up): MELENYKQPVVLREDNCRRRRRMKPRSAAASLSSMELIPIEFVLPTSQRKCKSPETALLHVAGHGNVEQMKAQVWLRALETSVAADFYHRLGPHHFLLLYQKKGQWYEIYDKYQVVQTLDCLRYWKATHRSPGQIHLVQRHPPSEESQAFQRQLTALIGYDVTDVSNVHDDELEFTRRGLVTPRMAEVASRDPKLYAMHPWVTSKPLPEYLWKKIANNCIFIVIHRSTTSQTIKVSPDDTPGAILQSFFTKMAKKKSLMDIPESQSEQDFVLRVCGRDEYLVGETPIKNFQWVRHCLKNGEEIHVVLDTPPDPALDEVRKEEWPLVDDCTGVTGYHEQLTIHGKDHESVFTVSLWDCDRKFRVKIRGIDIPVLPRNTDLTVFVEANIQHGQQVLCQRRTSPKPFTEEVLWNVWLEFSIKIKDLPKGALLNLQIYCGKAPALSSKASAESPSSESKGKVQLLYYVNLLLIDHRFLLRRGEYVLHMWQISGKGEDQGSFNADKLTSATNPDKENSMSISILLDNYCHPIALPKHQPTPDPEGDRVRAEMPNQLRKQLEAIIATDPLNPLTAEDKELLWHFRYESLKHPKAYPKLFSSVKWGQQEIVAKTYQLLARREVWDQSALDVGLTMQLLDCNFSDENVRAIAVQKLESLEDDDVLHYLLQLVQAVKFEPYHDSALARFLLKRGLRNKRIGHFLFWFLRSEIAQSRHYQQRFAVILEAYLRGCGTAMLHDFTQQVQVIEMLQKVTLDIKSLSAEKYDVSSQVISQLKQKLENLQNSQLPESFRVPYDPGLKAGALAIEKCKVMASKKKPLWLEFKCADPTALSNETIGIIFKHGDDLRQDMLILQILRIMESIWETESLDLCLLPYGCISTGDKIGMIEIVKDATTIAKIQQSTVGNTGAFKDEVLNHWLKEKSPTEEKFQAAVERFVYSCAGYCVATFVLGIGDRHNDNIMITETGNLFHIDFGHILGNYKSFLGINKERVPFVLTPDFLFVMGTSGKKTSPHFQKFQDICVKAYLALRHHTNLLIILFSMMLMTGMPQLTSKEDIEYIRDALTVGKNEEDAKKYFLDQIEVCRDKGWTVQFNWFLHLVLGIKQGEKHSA
UniProt P21709, sequence (whole entry, looked up): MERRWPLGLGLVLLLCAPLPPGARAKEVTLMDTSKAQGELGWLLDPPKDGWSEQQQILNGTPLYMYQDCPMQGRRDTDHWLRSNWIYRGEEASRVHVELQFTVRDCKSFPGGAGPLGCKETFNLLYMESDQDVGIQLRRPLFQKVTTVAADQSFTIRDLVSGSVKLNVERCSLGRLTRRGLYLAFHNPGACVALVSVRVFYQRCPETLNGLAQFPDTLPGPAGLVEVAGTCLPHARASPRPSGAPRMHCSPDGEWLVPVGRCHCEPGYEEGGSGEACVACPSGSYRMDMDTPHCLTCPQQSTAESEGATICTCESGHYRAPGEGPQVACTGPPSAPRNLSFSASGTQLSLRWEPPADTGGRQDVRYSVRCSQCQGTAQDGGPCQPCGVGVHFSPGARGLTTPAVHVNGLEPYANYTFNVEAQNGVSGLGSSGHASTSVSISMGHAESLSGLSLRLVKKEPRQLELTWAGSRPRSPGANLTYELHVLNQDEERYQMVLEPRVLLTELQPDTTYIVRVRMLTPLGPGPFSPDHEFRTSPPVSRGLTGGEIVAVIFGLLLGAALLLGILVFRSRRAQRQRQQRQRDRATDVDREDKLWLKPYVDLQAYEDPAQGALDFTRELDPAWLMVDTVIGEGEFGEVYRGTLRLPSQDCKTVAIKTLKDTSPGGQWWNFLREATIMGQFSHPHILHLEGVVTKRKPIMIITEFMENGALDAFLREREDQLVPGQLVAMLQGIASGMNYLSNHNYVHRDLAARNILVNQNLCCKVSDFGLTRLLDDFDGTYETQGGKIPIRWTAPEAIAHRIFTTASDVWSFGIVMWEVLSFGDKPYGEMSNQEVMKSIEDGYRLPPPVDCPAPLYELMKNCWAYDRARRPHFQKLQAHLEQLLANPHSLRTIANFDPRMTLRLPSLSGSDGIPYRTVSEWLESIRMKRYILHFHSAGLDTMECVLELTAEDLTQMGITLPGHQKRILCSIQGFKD
UniProt P62344, sequence (whole entry, looked up): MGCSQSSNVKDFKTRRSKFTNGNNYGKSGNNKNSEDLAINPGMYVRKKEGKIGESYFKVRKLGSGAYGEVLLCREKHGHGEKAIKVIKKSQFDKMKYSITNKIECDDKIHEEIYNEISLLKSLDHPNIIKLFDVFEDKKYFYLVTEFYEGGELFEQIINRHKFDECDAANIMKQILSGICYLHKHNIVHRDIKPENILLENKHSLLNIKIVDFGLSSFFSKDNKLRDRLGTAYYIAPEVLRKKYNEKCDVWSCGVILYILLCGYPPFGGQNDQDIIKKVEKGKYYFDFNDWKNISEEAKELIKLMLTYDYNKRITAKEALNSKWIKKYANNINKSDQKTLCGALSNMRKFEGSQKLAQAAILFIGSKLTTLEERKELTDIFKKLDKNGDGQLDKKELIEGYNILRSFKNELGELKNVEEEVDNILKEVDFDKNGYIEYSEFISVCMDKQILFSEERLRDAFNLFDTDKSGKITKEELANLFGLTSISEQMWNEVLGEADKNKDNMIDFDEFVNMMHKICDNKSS
UniProt Q32MK0, sequence (whole entry, looked up): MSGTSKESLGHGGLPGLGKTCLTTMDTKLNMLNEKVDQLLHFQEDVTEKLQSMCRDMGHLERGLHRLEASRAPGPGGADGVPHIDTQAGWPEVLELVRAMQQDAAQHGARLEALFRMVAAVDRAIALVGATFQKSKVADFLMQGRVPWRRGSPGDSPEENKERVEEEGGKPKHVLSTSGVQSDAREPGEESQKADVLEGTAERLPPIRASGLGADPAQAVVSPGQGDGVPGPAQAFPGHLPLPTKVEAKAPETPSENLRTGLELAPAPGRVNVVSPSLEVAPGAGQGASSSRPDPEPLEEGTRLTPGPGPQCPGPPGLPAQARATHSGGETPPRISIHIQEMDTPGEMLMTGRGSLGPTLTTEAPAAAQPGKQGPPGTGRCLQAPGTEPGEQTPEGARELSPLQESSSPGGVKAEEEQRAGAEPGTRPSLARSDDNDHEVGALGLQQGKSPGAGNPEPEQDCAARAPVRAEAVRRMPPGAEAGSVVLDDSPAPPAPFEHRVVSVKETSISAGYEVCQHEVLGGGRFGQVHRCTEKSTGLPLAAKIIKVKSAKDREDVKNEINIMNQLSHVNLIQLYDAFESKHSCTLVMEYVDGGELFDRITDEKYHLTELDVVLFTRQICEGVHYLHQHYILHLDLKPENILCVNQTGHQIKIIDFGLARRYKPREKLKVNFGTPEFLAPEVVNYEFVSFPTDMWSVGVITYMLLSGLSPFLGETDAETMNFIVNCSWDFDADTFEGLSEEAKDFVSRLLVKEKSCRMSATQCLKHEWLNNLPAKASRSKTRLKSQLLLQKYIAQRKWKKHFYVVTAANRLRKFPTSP

For Cc1cc([C@@H](C)Nc2ccccc2C(=O)O)c2nc(N3CCC(F)(F)CC3)c(C#N)c(=O)n2c1, the remaining binding was 83% (PRKACA (Homo sapiens, UniProt P17612); binding, competition with immobilised ligand; 10 µM).
With CC[C@H](C)[C@H](NC(=O)[C@H](CCC(N)=O)NC(=O)[C@@H](NC(=O)[C@H](CCSC)NC(=O)[C@H](CCCCN)NC(=O)[C@H](CO)NC(=O)[C@@H](NC(=O)[C@H](CCSC)NC(=O)[C@H](CC(C)C)NC(=O)[C@H](CC(N)=O)NC(=O)[C@@H](NC(=O)[C@@H](NC(=O)[C@H](CO)NC(=O)[C@H](CC(C)C)NC(=O)[C@H](C)NC(=O)[C@H](CCCNC(=N)N)NC(=O)[C@H](CCC(=O)O)NC(=O)[C@H](Cc1ccc(O)cc1)NC(=O)[C@H](Cc1ccccc1)NC(=O)[C@H](C)NC(=O)[C@H](CC(N)=O)NC(=O)[C@@H](N)CCCCN)[C@@H](C)CC)[C@@H](C)CC)[C@@H](C)O)C(C)C)C(=O)N[C@@H](CC(N)=O)C(=O)N[C@H](C(=O)O)C(C)C the remaining activity was 98% (MAPK3 (Homo sapiens, UniProt P27361); enzyme activity, inhibitor, radiometric; 50 µM, 20 min).
With C1=C/COCc2cc(ccc2OCCN2CCCC2)Nc2nccc(n2)-c2cccc(c2)COC/1 the remaining binding was 45% (PIK3CA (Homo sapiens, UniProt P42336, H1047L); binding; 0.1 µM).
For COc1cc(-c2cncc3c2CN(C)Cc2cc(N4CCNCC4)ccc2-3)cc(OC)c1OC, the remaining activity was 102% (Cyclin-dependent kinase 14, with cyclin Y (CDK14, Homo sapiens, UniProt O94921); enzyme activity, inhibitor; 1 µM).
O=C(NCc1cc(O)c(O)c(Br)c1)c1cccc(C(F)(F)F)c1 gave an inhibition of 98.5% (Replicase polyprotein 1ab, main protease (rep, Porcine epidemic diarrhea virus, UniProt P0C6Y4); enzyme activity, inhibitor, FRET; 10 µM).
COc1ccc2[nH]cc(CCNC(C)=O)c2c1I has an Emax of 66% (MTNR1B (Homo sapiens, UniProt P49286); GTPγS binding, agonist, radiometric; cell membranes).
The remaining binding of C[C@H]1CCN(c2nccc(-c3cnn4ncccc34)n2)C1 is reported as 86% (CDPK1 (Plasmodium falciparum, UniProt P62344); binding; 1 µM).
COc1ccc2ncn(CCNC(C)=O)c2c1 gave an Emax of 60% (MTNR1A (Homo sapiens, UniProt P48039); cAMP, agonist, TR-FRET; CHO-K1; 20 min).
The remaining signal of Nc1ncnc2occ(-c3ccc(NC(=O)Nc4cc(C(F)(F)F)ccc4F)cc3)c12 is reported as 63% (PIK3CA (Homo sapiens, UniProt P42336, H1047Y); cell-free assay, inhibitor; 20 µM).
For CNc1ncc2c(/C=C/C(=O)N3CCC(OC)CC3)nn(Cc3cccc(C(F)(F)F)c3)c2n1, the remaining activity was 95% (MYLK3 (Homo sapiens, UniProt Q32MK0); enzyme activity, inhibitor, radiometric; 1 µM).
With NC/C(=C\F)COc1cccc(Cn2c(=S)[nH]c(=O)c3[nH]cnc32)c1 the inhibition was less than 50% (CHRM3 (Homo sapiens, UniProt P20309); ligand displacement, radioligand; 10 µM).
C=CC(=O)N1CCC(COCC(=O)N2CCN(c3nc(-c4cnc(N)nc4C(F)F)nc(N4CCOC[C@@H]4C)n3)CC2)CC1 has a remaining binding of 100% (EPHA1 (Homo sapiens, UniProt P21709); binding, competition with immobilised ligand; 1 µM).
The remaining binding of CCCCC(=O)Nc1ccc(-c2ccc3ncn(CCC)c(=O)c3c2)cn1 is reported as 90% (PRKD1 (Homo sapiens, UniProt Q15139); binding, competition with immobilised ligand; 0.5 µM).
CN1CC(Oc2cnc(C#N)cc2-c2ccn3nc(NC(=O)C4CC4)cc3c2)C1 gave an inhibition of 1% (PIK3CG (Homo sapiens, UniProt P48736); enzyme activity, inhibitor; 1 µM).
